Measured values gathered from unrelated publications.
Each numbered part is a random draw from the data of one study; scales do not carry over between parts.
Sequence of UniProt P49137 (whole entry, looked up): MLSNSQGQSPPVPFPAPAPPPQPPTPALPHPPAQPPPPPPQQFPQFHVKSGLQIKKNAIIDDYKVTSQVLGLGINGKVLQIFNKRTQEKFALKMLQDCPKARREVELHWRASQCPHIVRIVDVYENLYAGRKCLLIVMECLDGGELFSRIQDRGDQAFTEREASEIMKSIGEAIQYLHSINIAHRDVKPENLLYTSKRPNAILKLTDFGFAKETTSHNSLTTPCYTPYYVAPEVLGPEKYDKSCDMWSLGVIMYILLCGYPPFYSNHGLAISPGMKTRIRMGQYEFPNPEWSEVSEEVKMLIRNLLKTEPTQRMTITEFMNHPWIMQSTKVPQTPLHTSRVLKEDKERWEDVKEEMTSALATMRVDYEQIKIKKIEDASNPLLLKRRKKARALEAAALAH
Sequence of UniProt Q96NX5 (whole entry, looked up): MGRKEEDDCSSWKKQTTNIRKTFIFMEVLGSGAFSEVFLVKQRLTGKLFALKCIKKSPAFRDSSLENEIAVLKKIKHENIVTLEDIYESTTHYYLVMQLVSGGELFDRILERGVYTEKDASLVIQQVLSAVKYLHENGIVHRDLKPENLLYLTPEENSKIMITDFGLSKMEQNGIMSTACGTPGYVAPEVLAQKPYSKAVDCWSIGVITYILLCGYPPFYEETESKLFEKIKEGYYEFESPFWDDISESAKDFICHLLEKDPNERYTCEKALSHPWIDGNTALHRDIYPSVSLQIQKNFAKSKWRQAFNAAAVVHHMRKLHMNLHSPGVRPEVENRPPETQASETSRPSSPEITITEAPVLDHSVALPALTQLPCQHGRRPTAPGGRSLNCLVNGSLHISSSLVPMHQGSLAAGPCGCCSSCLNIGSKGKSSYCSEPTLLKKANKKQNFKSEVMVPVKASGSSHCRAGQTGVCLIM
Sequence of UniProt Q16513 (whole entry, looked up): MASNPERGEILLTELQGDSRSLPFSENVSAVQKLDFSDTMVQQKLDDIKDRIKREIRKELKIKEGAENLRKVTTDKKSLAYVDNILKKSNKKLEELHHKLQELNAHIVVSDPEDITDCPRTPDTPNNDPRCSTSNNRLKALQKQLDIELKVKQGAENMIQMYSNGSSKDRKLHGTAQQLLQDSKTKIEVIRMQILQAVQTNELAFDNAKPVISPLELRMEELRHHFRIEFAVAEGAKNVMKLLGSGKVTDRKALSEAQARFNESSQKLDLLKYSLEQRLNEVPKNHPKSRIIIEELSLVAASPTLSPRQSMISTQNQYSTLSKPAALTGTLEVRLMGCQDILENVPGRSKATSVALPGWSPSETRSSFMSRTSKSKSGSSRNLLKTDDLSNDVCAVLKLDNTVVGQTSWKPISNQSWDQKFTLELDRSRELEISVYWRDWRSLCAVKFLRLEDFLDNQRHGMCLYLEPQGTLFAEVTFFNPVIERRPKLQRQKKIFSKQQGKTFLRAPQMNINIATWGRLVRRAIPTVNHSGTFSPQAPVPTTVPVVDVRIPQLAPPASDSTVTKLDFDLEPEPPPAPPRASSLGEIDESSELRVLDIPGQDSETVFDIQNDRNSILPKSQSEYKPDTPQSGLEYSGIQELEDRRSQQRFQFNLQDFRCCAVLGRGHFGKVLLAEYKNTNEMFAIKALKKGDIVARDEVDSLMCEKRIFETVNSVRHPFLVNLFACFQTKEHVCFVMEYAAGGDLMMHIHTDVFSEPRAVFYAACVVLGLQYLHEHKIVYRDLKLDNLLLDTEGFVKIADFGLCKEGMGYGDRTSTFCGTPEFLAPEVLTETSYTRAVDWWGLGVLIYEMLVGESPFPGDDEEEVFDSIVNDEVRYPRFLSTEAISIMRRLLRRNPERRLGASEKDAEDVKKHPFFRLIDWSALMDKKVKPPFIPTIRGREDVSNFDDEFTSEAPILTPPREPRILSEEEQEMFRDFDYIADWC
Sequence of UniProt P07949 (whole entry, looked up): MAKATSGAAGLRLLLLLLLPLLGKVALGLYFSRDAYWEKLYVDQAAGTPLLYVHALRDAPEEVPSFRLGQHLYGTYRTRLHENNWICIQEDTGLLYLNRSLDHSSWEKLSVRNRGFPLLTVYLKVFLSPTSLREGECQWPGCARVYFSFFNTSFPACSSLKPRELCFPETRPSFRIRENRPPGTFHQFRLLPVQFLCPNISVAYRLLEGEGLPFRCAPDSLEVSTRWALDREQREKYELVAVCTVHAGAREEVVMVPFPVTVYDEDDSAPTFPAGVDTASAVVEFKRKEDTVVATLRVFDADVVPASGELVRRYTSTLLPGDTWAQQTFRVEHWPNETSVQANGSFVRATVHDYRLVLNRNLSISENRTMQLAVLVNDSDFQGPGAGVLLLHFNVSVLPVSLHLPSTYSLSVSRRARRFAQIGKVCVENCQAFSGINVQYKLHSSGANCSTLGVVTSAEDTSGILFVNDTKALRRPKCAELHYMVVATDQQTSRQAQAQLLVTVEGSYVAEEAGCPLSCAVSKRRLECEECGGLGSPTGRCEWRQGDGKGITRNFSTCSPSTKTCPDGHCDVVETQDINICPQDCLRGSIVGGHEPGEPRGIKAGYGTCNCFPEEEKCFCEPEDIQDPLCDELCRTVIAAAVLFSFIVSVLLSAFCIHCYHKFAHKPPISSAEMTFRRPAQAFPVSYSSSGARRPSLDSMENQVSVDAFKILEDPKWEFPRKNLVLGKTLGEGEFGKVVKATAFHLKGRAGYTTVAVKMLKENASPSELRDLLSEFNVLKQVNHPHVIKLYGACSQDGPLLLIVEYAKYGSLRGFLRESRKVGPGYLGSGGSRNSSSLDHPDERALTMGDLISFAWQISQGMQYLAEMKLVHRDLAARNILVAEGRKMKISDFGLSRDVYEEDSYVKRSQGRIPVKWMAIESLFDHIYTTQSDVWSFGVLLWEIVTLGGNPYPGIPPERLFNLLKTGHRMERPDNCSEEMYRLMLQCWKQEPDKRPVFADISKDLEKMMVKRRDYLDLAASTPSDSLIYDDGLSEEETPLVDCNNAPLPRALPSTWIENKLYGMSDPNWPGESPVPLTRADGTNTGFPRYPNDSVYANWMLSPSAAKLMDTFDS
Sequence of UniProt Q9H2G2 (whole entry, looked up): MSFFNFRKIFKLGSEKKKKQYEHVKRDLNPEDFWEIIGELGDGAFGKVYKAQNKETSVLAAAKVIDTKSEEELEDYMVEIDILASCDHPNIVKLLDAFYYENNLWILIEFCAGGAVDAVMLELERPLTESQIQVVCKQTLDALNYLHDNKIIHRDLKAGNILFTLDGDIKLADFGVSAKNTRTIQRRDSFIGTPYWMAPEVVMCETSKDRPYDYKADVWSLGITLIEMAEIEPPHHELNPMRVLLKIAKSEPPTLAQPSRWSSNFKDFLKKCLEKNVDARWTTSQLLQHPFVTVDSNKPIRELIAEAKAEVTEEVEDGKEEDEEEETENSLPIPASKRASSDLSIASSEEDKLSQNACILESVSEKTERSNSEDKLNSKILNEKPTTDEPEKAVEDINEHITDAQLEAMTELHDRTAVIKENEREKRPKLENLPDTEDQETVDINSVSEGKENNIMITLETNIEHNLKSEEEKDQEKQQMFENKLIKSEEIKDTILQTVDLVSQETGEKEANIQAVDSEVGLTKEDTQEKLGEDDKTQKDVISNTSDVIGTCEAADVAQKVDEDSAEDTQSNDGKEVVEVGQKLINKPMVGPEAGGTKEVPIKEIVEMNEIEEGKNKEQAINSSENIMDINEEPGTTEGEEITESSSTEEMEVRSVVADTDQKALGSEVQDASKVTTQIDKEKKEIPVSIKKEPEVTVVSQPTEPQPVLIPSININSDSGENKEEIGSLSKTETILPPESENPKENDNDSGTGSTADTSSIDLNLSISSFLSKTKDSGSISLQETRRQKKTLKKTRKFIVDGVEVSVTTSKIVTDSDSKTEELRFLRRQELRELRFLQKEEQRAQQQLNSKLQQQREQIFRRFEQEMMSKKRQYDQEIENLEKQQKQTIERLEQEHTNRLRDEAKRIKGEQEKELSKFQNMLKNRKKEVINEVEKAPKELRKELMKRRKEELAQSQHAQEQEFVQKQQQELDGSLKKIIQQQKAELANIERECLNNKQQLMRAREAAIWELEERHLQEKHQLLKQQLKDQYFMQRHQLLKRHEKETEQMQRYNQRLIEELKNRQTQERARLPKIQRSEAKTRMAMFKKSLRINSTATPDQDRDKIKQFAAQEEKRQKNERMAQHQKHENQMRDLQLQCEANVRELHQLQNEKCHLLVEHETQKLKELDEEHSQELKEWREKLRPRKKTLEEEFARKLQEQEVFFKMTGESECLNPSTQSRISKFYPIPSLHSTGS
Sequence of UniProt Q12851 (whole entry, looked up): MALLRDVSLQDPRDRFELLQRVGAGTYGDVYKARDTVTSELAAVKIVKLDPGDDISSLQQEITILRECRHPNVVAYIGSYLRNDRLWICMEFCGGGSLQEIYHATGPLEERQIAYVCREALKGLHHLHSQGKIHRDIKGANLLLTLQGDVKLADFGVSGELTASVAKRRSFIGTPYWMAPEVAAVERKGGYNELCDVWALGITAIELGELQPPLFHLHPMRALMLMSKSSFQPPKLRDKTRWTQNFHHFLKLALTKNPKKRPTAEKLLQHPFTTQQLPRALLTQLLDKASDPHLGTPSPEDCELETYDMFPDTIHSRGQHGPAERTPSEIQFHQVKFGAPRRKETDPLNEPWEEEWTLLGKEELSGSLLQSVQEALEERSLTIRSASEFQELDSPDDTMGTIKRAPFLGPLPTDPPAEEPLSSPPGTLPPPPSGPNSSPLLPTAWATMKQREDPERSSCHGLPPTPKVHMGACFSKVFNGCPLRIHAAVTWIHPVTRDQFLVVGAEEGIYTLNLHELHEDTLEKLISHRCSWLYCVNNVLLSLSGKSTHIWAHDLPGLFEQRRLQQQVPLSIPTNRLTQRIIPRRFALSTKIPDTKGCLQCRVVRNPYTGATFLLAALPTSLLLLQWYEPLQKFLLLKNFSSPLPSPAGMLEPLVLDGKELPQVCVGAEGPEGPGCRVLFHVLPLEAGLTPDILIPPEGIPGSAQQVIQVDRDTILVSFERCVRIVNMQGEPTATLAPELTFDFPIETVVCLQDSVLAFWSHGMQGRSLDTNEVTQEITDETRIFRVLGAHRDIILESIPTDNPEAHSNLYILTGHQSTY

Series 1
SMILES: CCCC(=O)Oc1ccc2[nH]c(C(=O)c3cc4ccccc4[nH]3)cc2c1
Read-out: enzyme activity
Action: inhibitor
Tested at: 0.5 µM
Reference: control
target	remaining activity [%]
Calcium/calmodulin-dependent protein kinase type 1G (CAMK1G, Homo sapiens, UniProt Q96NX5)	100
Proto-oncogene tyrosine-protein kinase receptor Ret (RET, Homo sapiens, UniProt P07949)	100
Serine/threonine-protein kinase BRSK1 (BRSK1, Homo sapiens, UniProt Q8TDC3)	99.5
STE20-like serine/threonine-protein kinase (SLK, Homo sapiens, UniProt Q9H2G2)	98.9
Calcium/calmodulin-dependent protein kinase type 1D (CAMK1D, Homo sapiens, UniProt Q8IU85)	103
Dual specificity tyrosine-phosphorylation-regulated kinase 4 (DYRK4, Homo sapiens, UniProt Q9NR20)	86
Serine/threonine-protein kinase D1 (PRKD1, Homo sapiens, UniProt Q15139)	88.7
Proto-oncogene tyrosine-protein kinase ROS (ROS1, Homo sapiens, UniProt P08922)	97
Serine/threonine-protein kinase Nek9 (NEK9, Homo sapiens, UniProt Q8TD19)	110
Serine/threonine-protein kinase N2 (PKN2, Homo sapiens, UniProt Q16513)	100

Series 2
Compound: Cc1cc(C)c(-n2ccn3nc(-c4cccnc4)cc23)cc1NC(=O)c1cc(C#N)cc(S(F)(F)(F)(F)F)c1
Read-out: cell-free assay
Method: competition with immobilised ligand
Tested at: 0.1 µM
target	remaining binding [%]
5'-AMP-activated protein kinase catalytic subunit alpha-2 (PRKAA2, Homo sapiens, UniProt P54646)	82.7
Wee1-like protein kinase (WEE1, Homo sapiens, UniProt P30291)	100
Phosphatidylinositol 4,5-bisphosphate 3-kinase catalytic subunit delta isoform (PIK3CD, Homo sapiens, UniProt O00329)	76.9
Dual specificity mitogen-activated protein kinase kinase 3 (MAP2K3, Homo sapiens, UniProt P46734)	81.9
Mitogen-activated protein kinase kinase kinase kinase 2 (MAP4K2, Homo sapiens, UniProt Q12851)	53.1
Non-receptor tyrosine-protein kinase TYK2, JH2 (TYK2, Homo sapiens, UniProt P29597)	87.3
Aurora kinase C (AURKC, Homo sapiens, UniProt Q9UQB9)	100
MAP kinase-activated protein kinase 2 (MAPKAPK2, Homo sapiens, UniProt P49137)	100
Serine/threonine-protein kinase 17B (STK17B, Homo sapiens, UniProt O94768)	91.4
Serine/threonine-protein kinase ULK2 (ULK2, Homo sapiens, UniProt Q8IYT8)	100
Rho-associated protein kinase 2 (ROCK2, Homo sapiens, UniProt O75116)	66.2
Rhodopsin kinase GRK1 (GRK1, Homo sapiens, UniProt Q15835)	71.2
Cytoplasmic tyrosine-protein kinase BMX (BMX, Homo sapiens, UniProt P51813)	76.7

Series 3
Host: mouse
Sample: microsomes or S9
Tested at: 2 µM
Time: 0.5 h
Structure (SMILES)	remaining compound
CCCNC(=O)Nc1ccccc1S(=O)(=O)NCCC	> 99%
c1ccc2c(-c3ccc4[nH]ncc4c3)csc2c1	57%
CC(C)(C)OC(=O)N1CCC(Nc2nccn3c(Br)cnc23)CC1	3.75%
Cc1ncc2c(c1O)COC(C)OC2 (stereo not drawn)	97.3%
O=C1OCc2c(-c3ccccc3)sc(-c3ccccc3)c21	3.71%
COc1ccc(OC)c(Nc2nc(CC(=O)NCCc3c[nH]c4ccccc34)cs2)c1	3.06%

Other studies, line by line
Structure (SMILES)	organism	test system	setting	measurement	value
Cc1c(C(=O)NN2CCCCC2)nn(-c2ccc(Cl)cc2Cl)c1-c1ccc(I)cc1	Sarcocystis neurona	GFP/FLUC expressing	10 µM, confirmation screen	inhibition	99.2%

Some of these lines once more (series 3):
Structure (SMILES)	remaining compound
O=C1OCc2c(-c3ccccc3)sc(-c3ccccc3)c21	3.71%
COc1ccc(OC)c(Nc2nc(CC(=O)NCCc3c[nH]c4ccccc34)cs2)c1	3.06%
